# Results of several laboratories.
# Lines come from different studies, so protocols differ.
# Target: 5-hydroxytryptamine receptor 2B (HTR2B, Homo sapiens, UniProt P41595)
# UniProt P41595, sequence (whole entry, looked up): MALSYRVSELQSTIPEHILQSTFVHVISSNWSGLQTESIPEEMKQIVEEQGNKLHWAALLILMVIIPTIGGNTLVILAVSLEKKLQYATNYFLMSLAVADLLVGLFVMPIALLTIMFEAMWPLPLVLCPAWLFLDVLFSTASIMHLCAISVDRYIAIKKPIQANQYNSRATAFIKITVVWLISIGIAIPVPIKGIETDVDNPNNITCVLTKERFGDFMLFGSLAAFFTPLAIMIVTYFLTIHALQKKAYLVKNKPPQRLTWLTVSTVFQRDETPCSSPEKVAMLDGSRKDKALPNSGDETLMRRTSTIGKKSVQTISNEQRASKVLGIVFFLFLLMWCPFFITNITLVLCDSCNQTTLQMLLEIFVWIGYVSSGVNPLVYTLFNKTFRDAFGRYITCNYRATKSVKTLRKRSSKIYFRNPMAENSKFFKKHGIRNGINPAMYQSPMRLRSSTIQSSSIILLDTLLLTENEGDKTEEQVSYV
Compound,observed,method,tested at,setting,together with,inhibition
O=C(NO)c1ccc(CN2CCCCc3ccccc32)c(F)c1,radioligand binding,radioligand displacement,10 µM,mean of replicates,,48.2%
CCN1/C(=C/C(C)=O)Sc2ccc(F)cc21,,,10 µM,,,39.1%
O=C(CN1CCO[C@H](COc2cccc(Cl)c2)C1)N1CCc2ccccc21,radioligand binding,,concentration not given,,[3H]LSD,88.8%
CCCC[C@H](NC(=O)[C@H](C)c1c(C)[nH]c2ccc(O)cc12)c1ncc(-c2cc3ccccc3nc2OC)[nH]1,,,1 µM,,,50%
OCCCN1CC[C@@H]2C[C@H]1c1cc(-c3ccc(C(F)(F)F)cc3)ccc12,radioligand binding,PDSP competition binding,10 µM,,,< 50%
O=C(CN1CCO[C@H](COc2ccccc2)C1)N1CCc2ccccc21,radioligand binding,,concentration not given,,[3H]LSD,74.4%
COc1cc2c3c(c1OCc1ccc(Br)cc1)-c1cc4c(cc1CC3N(C)CC2c1ccccc1)OCO4 (stereo not drawn),radioligand binding,,10 µM,,[3H]LSD,inactive
Cc1ccnc(C)c1OC[C@H]1CN(CCN2CCc3ccccc32)CCO1,radioligand binding,,concentration not given,,[3H]LSD,61.2%
CCS(=O)(=O)c1nc(S(=O)(=O)c2ccccc2Cl)c(N2CCN(C)C(=O)[C@H]2C)s1,,,10 µM,,,4.94%

# Repeated from above:
Compound,observed,method,tested at,setting,together with,inhibition
CCCC[C@H](NC(=O)[C@H](C)c1c(C)[nH]c2ccc(O)cc12)c1ncc(-c2cc3ccccc3nc2OC)[nH]1,,,1 µM,,,50%
